Results of several laboratories.
Lines come from different studies, so protocols differ.
RPS6KA5: Ribosomal protein S6 kinase alpha-5 (RPS6KA5, Homo sapiens, UniProt O75582)
Chain of UniProt O75582 (whole entry, looked up): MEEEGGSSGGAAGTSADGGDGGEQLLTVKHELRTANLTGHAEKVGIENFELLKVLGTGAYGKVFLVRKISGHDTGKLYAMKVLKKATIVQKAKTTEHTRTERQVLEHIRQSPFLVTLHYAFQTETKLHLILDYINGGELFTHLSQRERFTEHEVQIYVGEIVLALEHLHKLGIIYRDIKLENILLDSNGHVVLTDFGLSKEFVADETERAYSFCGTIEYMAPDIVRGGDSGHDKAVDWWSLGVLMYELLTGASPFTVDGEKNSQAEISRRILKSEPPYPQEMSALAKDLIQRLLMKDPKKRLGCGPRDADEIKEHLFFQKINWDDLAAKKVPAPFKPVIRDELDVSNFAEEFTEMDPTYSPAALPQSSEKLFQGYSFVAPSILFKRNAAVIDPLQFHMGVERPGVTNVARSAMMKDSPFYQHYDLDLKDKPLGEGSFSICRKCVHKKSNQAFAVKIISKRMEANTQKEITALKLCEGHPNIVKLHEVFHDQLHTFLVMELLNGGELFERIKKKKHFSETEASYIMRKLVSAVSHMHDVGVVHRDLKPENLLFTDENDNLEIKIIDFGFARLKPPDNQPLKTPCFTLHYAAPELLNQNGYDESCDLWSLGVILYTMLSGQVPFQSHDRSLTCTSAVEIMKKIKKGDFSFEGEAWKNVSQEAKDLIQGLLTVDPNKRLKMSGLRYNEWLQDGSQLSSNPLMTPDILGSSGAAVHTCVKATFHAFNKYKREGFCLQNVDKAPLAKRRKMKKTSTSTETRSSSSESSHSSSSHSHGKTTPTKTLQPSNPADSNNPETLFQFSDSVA
Chain of UniProt Q13554 (whole entry, looked up): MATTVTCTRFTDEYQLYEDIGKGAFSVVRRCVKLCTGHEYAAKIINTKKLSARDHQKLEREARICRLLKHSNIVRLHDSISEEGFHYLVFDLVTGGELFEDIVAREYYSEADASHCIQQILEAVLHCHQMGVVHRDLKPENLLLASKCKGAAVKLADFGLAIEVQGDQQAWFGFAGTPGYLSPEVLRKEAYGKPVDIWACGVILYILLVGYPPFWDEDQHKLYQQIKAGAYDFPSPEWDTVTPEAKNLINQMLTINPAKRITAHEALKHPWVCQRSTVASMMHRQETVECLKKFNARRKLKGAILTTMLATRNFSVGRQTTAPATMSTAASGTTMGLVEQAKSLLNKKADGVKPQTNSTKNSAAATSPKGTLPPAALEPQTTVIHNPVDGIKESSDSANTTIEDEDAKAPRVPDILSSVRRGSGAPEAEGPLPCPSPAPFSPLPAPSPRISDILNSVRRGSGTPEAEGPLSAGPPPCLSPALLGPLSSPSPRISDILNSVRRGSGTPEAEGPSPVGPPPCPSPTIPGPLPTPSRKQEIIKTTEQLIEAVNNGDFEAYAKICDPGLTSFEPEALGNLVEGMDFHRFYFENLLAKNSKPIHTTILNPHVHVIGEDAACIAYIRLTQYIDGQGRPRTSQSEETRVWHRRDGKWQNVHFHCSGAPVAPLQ
Chain of UniProt O43293 (whole entry, looked up): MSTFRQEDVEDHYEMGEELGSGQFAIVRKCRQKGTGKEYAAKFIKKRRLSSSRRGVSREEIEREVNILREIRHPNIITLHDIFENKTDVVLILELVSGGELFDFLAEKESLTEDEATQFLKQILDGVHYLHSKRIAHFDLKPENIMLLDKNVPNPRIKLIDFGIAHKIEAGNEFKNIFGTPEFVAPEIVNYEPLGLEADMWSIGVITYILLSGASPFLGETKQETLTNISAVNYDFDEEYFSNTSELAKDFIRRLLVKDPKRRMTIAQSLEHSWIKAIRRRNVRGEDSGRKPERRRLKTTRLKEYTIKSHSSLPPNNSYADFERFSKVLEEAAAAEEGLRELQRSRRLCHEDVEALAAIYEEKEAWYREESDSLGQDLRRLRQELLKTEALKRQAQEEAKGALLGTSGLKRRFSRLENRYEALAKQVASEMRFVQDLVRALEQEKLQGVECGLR
Chain of UniProt P51956 (whole entry, looked up): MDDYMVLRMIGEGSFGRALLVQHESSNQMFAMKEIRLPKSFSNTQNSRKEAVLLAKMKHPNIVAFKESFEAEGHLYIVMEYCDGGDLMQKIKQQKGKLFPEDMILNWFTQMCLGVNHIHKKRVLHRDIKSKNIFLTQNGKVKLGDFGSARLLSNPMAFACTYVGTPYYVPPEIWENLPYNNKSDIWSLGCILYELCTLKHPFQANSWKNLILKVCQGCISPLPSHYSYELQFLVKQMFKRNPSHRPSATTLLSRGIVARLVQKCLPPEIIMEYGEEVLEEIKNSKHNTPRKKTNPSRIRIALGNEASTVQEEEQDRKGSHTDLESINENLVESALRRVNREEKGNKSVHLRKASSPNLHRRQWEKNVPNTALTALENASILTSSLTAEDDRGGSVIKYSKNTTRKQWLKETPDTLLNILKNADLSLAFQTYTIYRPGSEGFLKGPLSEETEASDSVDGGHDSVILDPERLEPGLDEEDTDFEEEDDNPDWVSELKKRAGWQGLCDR
Chain of UniProt P37173 (whole entry, looked up): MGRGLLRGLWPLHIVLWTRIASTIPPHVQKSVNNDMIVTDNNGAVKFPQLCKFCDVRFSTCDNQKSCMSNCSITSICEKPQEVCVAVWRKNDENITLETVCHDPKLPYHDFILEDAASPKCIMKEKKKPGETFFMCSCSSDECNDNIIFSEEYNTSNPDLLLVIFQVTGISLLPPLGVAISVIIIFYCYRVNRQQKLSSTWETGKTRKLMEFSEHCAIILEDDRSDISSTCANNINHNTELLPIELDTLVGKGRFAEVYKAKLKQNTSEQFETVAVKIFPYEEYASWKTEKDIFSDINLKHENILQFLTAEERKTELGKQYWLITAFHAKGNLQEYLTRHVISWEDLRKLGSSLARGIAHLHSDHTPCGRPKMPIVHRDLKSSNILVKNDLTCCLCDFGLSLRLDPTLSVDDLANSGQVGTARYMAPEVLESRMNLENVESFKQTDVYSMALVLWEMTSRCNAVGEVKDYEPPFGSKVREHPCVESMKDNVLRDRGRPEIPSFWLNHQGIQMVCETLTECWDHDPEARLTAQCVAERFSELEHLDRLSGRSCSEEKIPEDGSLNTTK
Chain of UniProt P06797 (whole entry, looked up): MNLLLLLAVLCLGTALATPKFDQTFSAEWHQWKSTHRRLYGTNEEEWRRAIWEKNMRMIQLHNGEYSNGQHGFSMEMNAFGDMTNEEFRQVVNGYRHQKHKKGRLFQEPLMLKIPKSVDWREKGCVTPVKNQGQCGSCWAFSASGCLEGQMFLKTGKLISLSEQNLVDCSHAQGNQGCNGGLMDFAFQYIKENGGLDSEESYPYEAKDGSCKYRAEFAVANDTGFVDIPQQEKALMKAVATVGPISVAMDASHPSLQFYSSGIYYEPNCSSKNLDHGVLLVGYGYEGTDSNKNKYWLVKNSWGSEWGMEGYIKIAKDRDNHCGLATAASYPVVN

Structure (SMILES)	target	test	conditions	scale	remaining activity [%]
O=C(NC1CCC1)c1ccc2nc(-c3cccc(NS(=O)(=O)NCCN4CCCCC4)c3)cn2c1	TGF-beta receptor type-2 (TGFBR2, Homo sapiens, UniProt P37173)	enzyme activity	10 µM		100
CNc1ncc2c(/C=C/C(=O)N3CCC(OC)CC3)nn(Cc3cccc(C(F)(F)F)c3)c2n1	Calcium/calmodulin-dependent protein kinase type II subunit beta (CAMK2B, Homo sapiens, UniProt Q13554)	kinase activity, inhibitor	1 µM	baseline: untreated control	97
Cc1cccc(C)c1C(=O)OCC(=O)[C@H](CCCCN)NC(=O)[C@H](CCCNC(=N)N)NC(=O)OCc1ccccc1	Procathepsin L (Mus musculus, UniProt P06797)	inhibitor	1 µM, room temperature, with: AMC substrate		100
COc1cc(Nc2ncc3c(n2)-c2ccc(Cl)cc2C(c2c(F)cccc2OC)=NC3)ccc1C(=O)O	MAP2K6	kinase activity	1 µM		109
Cc1cc(Nc2cc(N3CCN(C)CC3)nc(Sc3ccc(NC(=O)C4CC4)cc3)n2)[nH]n1	Serine/threonine-protein kinase Nek3 (NEK3, Homo sapiens, UniProt P51956)	kinase activity, KinaseProfiler	0.03 µM, species human	baseline: control	105
O=C1NC(=O)/C(=C/c2ccc(-c3ccc(F)cc3O)o2)S1	RPS6KA5	enzyme activity	10 µM		54
COc1cc(-c2cncc3c2CN(C)Cc2cc(N4CCNCC4)ccc2-3)cc(OC)c1OC	Death-associated protein kinase 3 (DAPK3, Homo sapiens, UniProt O43293)	kinase activity	1 µM, human enzyme, with: ATP 10 µM	baseline: DMSO control	108
COc1cc(F)ccc1-c1ncnc(Nc2cccc(C[S@](C)(=N)=O)c2)n1	RPS6KA5	kinase activity	10 µM, with: 10 µM ATP		91
O=C(O)c1ccc(Nc2ncc3c(n2)-c2ccc(Cl)cc2C(c2c(F)cccc2F)=NC3)cc1	NEK6(h)	kinase activity	1 µM		92
